# Measured values pooled from the literature.
# Every numbered part comes from another study and shows a few of its results, in no order. “And” joins repeats or separate records; there may be more than shown.
# UniProt Q16853, sequence (whole entry, looked up): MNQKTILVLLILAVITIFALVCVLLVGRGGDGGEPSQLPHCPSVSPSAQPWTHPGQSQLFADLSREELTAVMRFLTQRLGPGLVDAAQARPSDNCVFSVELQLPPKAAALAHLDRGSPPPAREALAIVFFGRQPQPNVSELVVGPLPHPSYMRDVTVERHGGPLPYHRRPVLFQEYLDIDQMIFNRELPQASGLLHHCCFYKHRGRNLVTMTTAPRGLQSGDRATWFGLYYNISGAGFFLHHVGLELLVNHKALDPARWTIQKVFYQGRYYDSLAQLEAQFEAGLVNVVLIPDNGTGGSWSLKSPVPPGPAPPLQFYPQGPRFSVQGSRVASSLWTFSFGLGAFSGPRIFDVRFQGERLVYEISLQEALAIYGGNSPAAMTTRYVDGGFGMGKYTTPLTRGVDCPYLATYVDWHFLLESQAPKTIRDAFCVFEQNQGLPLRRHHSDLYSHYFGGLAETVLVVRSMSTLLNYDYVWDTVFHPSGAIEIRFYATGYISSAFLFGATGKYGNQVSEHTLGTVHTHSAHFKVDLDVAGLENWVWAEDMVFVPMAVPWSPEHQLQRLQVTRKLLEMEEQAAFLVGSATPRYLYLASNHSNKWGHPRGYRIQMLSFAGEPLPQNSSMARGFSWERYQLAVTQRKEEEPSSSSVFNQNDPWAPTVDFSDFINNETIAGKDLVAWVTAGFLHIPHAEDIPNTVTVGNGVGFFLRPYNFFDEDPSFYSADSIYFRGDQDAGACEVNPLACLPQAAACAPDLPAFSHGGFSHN
# UniProt O08590, sequence (whole entry, looked up): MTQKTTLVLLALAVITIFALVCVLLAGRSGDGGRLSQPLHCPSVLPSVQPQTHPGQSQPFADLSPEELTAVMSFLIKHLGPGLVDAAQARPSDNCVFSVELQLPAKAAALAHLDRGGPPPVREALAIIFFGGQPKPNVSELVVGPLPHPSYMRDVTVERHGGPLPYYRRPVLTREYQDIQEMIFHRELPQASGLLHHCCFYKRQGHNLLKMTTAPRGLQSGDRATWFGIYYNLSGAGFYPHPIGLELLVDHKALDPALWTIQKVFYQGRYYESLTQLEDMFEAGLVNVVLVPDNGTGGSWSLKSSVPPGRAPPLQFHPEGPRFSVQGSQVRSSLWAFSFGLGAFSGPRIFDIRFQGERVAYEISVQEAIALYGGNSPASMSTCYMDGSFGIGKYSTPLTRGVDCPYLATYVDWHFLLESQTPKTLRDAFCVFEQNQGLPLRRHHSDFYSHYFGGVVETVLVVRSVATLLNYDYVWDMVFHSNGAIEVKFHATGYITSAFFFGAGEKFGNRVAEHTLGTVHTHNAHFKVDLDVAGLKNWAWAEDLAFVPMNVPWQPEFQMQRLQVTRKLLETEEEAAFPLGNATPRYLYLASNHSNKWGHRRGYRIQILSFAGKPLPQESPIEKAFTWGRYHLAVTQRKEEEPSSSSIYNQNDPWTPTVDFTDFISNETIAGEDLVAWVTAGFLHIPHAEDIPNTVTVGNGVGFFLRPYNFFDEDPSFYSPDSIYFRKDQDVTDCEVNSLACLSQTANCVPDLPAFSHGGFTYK

# Series 1
# SMILES: Cn1cc(-c2cccc(CN3CCC4(CC3)COc3c4ccc4c3CN([C@H]3CCC(=O)NC3=O)C4=O)c2)cn1
species,matrix,route,dose,setting,half-life
rat,plasma,oral,2.98 mg/kg,group mean,2.63 h
,mouse liver microsomes,,,,> 2 h
cynomolgus monkey,,oral,3.02 mg/kg,,10 h
,rat plasma,,,,10.8 h
,mouse plasma,,,,124 h
,rat liver microsomes,,,,> 2 h

# Series 2
# Cell line: MDA-MB-468
# Effect on: cell viability
# Method: CellCounting-Lite
# Tested at: 0.3048 nM
# Temperature: 37 °C
# Reading: higher = more viable cells
SMILES,luminescence signal
CCCCOc1nc(NCc2nc3cc(Cl)c(Cl)cc3[nH]2)c2ncn(CC)c2n1,513000 a.u. and 474000 a.u. and 466000 a.u.
CC(=O)N1CCN(c2nc(NCc3nc4cc(Cl)c(Cl)cc4[nH]3)c3ncn(C)c3n2)CC1,412000 a.u. and 419000 a.u. and 498000 a.u.
CCn1cnc2c(NCc3nc4cc(F)c(F)cc4[nH]3)nc(N3CCn4ncnc4C3)nc21,454000 a.u. and 444000 a.u. and 434000 a.u.
CCn1cnc2c(NCc3nc4cc(Cl)c(Cl)cc4[nH]3)nc(N3CCn4ncnc4C3)nc21,483000 a.u. and 502000 a.u. and 539000 a.u.
CCn1cnc2c(NCc3nc4cc(Cl)c(Cl)cc4[nH]3)nc(N3CCN(C(=O)[C@H](C)NC(C)=O)CC3)nc21,510000 a.u. and 450000 a.u. and 524000 a.u.
CC(=O)N1CCN(c2nc(NCc3nc4cc(Cl)c(Cl)cc4[nH]3)c3ncn(-c4cnn(C)c4)c3n2)CC1,457000 a.u. and 471000 a.u. and 524000 a.u.
CCn1cnc2c(NCc3nc4cc(Cl)c(Cl)cc4[nH]3)nc(N3CCN(C(=O)c4ccncc4)CC3)nc21,433000 a.u. and 407000 a.u. and 400000 a.u.
CCn1cnc2c(NCc3nc4cc(Cl)c(Cl)cc4[nH]3)nc(N3CCN(C(=O)c4cccnc4)CC3)nc21,371000 a.u. and 472000 a.u. and 476000 a.u.

# Single results of other studies
# MPO: Myeloperoxidase (MPO, Homo sapiens, UniProt P05164)
# UniProt P05164, sequence (whole entry, looked up): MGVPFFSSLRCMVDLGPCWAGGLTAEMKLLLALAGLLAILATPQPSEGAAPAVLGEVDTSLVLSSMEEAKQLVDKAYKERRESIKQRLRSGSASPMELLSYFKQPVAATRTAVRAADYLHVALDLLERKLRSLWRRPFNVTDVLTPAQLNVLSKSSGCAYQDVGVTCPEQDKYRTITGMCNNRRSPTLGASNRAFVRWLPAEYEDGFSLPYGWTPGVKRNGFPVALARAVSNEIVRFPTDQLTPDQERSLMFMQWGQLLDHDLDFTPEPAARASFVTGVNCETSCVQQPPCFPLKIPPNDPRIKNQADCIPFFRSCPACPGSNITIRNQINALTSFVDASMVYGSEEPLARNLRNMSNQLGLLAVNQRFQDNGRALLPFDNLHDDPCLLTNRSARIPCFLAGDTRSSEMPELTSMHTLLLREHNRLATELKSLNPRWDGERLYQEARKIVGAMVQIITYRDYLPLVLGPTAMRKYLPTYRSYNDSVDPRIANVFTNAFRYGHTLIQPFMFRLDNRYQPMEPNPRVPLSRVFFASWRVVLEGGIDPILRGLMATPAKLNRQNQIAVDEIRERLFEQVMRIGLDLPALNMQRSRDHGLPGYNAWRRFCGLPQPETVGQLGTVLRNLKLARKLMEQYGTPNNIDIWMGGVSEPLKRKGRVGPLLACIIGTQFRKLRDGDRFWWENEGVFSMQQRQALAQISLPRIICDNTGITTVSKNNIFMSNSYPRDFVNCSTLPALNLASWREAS
Structure (SMILES),tested on,test,conditions,endpoint,value
CS(=O)(=O)c1ccc(OC/C(=C/F)CN)cc1.Cl,"Amine oxidase [copper-containing] 3 (Rattus norvegicus, UniProt O08590)",enzyme activity,"concentration not given, rat enzyme",activity response,88.2%
Cc1ccc(O)c(C)c1-c1cnc2[nH]c(-c3cnc(N4CCC(CN5CCN(c6ccc(C(=O)NC7CCC(=O)NC7=O)c(F)c6)CC5)CC4)nc3)cc2c1C#N (racemic),HCC1569,"in-cell western, item: CDK1 phospho-Thr14",10000 nM,pCDK1 (Thr14) level,128% and 134%
NC/C(=C\F)COc1cc(Cn2c(=S)[nH]c(=O)c3[nH]cnc32)cc(C(F)(F)F)c1,"Amine oxidase [copper-containing] 3 (AOC3, Homo sapiens, UniProt Q16853)","enzyme activity, inhibitor, fluorescence",3.333 µM,inhibition,78.3% and 62% and 66.3%
COc1ccc(Cl)cc1-c1cc(=O)[nH]c(=S)n1CC(N)=O,MPO,"enzyme activity, inhibitor",0.41 µM,remaining activity,65.8%
NC/C(=C\F)COc1cccc(Cn2c(=S)[nH]c(=O)c3[nH]ccc32)c1,MPO,"enzyme activity, inhibitor, fluorescence",10 µM,inhibition,99.6% and 100%

# A few entries again (series 1):
species,matrix,route,dose,setting,half-life
,rat liver microsomes,,,,> 2 h
,mouse plasma,,,,124 h
